Assay results collected from several papers.
Values joined by “and” are separate records of one study, mostly repeats; a detail may differ.
RPS6KA3: Ribosomal protein S6 kinase alpha-3 (RPS6KA3, Homo sapiens, UniProt P51812)
UniProt P51812, sequence (whole entry, looked up): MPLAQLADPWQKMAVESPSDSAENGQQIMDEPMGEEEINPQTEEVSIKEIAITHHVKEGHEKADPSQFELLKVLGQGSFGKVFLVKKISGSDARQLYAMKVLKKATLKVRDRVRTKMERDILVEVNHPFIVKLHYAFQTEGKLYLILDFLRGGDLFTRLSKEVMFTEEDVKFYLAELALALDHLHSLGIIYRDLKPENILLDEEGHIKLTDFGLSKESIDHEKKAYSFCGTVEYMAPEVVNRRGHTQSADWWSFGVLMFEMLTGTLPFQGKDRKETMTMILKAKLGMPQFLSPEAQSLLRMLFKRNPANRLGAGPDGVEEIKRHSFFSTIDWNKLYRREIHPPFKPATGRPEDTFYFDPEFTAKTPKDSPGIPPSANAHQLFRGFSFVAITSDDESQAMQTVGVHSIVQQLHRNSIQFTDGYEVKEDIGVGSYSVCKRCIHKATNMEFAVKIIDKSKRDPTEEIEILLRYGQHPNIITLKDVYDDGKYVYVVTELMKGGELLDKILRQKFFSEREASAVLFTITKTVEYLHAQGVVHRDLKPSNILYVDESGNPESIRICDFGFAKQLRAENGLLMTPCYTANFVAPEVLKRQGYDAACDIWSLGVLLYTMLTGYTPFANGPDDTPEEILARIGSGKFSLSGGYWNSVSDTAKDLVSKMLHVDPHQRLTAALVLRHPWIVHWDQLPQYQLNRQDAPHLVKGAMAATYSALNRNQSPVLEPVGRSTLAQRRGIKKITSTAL

SMILES | target | test | system | conditions | scale | quantity | value
Nc1nc(Nc2ccccc2)sc1C(=O)c1ccccc1 | RPS6KA3 | enzyme activity, inhibitor |  | 10 µM |  | remaining activity | 47%
NC(=O)C[C@H]1CCc2sc3ncnc(O[C@H]4CC[C@H](N5CCOCC5)CC4)c3c21 | RPS6KA3 | enzyme activity, inhibitor |  | 10 µM |  | inhibition | 20%
COc1ccc(C(=O)/C=C/c2ccccc2-c2c[nH]c3ccc(C#N)cc23)c(O)c1 | RPS6KA3 | enzyme activity, inhibitor |  | 20 µM |  | inhibition | 6%
Cc1cccc(O[C@H]2CCC[C@@H](C(C)CNCc3ccncc3)C2)c1 (relative stereo) | RPS6KA3 | enzyme activity, inhibitor |  | 1 µM |  | inhibition | -3%
Cc1cccc(-c2ccc3nc(NC(=O)C4CCOCC4)nn3c2)c1 | RPS6KA3 | enzyme activity, Dundee kinase panel |  | 10 µM |  | remaining activity | 56%
COCC12C(=O)NC3C4(C(OC)CC1O)C1CC5(O)C(OC)C(O)C(OC(C)=O)(C1C5OC(=O)c1ccccc1)C3(O)C(OC)C24 (stereo not drawn) | RPS6KA3 | kinase activity, inhibitor, ProQinase kinase profiling |  | 25 µM | baseline: control | remaining activity | 110% and 97%
CN1CC[C@@H](COc2cnc(C#N)cc2-c2ccn3nc(NC(=O)C4CC4)cc3c2)C1 | RPS6KA3 | inhibitor, KinaseProfiler panel |  | 1 µM |  | inhibition | 18%
C#CCOC(=O)[C@]1(C)C=C(C(=O)OC(C)(C)C)C(=O)CC1 | RPS6KA3 | RSK sensor |  | concentration not given | baseline: positive control | normalized activity | 126
O=C(Nc1ccc(Oc2ncnc3[nH]cc(-c4ccccc4)c23)c(F)c1)c1c2n(n(-c3cc(F)ccc3F)c1=O)CCCC2 | RPS6KA3 | enzyme activity, inhibitor |  | 0.5 µM |  | inhibition | 10%
Cc1cccc(-c2ccc3nc(NC(=O)C4CCCO4)nn3c2)c1 (stereo not drawn) | RPS6KA3 | enzyme activity, Dundee kinase panel |  | 10 µM |  | remaining activity | 66%
O=c1c(-c2ccc(Cl)c(CN3CCOCC3)c2)coc2cc(O)ccc12 | RPS6KA3 | enzyme activity, inhibitor |  | 1 µM |  | remaining activity | 101%
Nc1ncc(-c2cc(-c3cnn(CC(F)(F)F)c3)ncc2F)nc1C(=O)NC1CNCC(F)C1 (stereo not drawn) | RPS6KA3 | enzyme activity |  | 1 µM | baseline: DMSO control | remaining activity | 76.6%
C=CC(=O)Nc1cccc(-c2cnc3[nH]cc(C(=O)NC(C)(C)C)c3n2)c1 | RPS6KA3 | enzyme activity, inhibitor |  | 0.1 µM |  | inhibition | 23%
C=CC(=O)Nc1cc(-c2nn(C3CCN(CCNC(=O)[C@H](C)CCC45CC6CC(CC(C6)C4)C5)CC3)c3ncnc(N)c23)ccc1Oc1ccccc1 | Ribosomal protein S6 kinase alpha-3, C-terminal kinase domain (RPS6KA3, Homo sapiens, UniProt P51812) | inhibitor, KiNativ profiling | biochemical | 2 µM |  | inhibition | -0.2%
Cc1nc2c(F)cc(-c3nc(Nc4ccc(CNC(=O)CCCCCCC(=O)NO)cc4)ncc3F)cc2n1C(C)C | RPS6KA3 | enzyme activity, inhibitor |  | 1 µM |  | inhibition | 58%

For quick reference, copied from above:
SMILES | target | test | system | conditions | scale | quantity | value
O=C(Nc1ccc(Oc2ncnc3[nH]cc(-c4ccccc4)c23)c(F)c1)c1c2n(n(-c3cc(F)ccc3F)c1=O)CCCC2 | RPS6KA3 | enzyme activity, inhibitor |  | 0.5 µM |  | inhibition | 10%
Cc1cccc(-c2ccc3nc(NC(=O)C4CCCO4)nn3c2)c1 (stereo not drawn) | RPS6KA3 | enzyme activity, Dundee kinase panel |  | 10 µM |  | remaining activity | 66%
